Measurements pooled from the literature.
Each line is one published result; not all experiments were run side by side. ± gives the spread as reported.
WWOX WW1 domain: WW domain-containing oxidoreductase, WW1 domain (WWOX, Homo sapiens, UniProt Q9NZC7)
Sequence of UniProt Q9NZC7 (whole entry, looked up): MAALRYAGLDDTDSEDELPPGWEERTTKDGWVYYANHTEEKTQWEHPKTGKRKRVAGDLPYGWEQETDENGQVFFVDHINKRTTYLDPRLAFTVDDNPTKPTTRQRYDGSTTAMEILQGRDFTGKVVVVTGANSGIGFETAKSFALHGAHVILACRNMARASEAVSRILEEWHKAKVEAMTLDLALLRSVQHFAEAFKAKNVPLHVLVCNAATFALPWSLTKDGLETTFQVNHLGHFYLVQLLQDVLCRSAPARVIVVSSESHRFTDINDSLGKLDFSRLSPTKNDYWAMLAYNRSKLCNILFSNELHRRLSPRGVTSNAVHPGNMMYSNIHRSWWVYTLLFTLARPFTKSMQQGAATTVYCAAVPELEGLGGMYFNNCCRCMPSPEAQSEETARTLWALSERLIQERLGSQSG
Sequence of UniProt P0DMS8 (whole entry, looked up): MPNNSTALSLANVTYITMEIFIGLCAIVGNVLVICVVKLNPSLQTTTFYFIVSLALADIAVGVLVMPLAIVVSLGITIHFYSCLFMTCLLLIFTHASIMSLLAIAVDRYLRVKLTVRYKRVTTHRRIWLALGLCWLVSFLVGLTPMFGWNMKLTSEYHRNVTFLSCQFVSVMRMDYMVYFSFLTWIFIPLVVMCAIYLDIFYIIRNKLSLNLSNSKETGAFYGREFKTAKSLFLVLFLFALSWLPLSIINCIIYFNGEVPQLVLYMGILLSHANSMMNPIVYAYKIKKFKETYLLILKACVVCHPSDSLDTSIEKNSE
Sequence of UniProt P15927 (whole entry, looked up): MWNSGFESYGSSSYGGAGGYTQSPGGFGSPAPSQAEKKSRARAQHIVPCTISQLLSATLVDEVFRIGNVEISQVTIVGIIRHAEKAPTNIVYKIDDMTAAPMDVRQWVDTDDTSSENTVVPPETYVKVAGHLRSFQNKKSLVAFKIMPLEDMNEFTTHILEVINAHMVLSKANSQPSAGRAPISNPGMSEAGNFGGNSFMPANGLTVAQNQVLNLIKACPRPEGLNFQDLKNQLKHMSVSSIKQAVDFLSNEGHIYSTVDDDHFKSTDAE
Sequence of UniProt P53341 (whole entry, looked up): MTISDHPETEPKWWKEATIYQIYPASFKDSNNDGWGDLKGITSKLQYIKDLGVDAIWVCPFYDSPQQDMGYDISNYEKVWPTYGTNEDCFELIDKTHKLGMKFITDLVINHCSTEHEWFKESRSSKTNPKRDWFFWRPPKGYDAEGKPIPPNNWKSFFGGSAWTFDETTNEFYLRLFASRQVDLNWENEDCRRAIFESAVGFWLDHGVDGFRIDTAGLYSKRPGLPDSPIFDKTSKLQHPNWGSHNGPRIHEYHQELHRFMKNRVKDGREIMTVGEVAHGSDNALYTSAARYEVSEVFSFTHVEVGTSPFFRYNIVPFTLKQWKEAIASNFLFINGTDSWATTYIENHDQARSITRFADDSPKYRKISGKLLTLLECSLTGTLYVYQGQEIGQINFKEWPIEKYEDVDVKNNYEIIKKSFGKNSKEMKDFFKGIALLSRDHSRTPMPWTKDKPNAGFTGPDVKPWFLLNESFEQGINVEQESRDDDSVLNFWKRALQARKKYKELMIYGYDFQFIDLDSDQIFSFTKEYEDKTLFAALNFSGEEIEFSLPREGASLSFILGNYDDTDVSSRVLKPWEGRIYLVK
Sequence of UniProt Q14833 (whole entry, looked up): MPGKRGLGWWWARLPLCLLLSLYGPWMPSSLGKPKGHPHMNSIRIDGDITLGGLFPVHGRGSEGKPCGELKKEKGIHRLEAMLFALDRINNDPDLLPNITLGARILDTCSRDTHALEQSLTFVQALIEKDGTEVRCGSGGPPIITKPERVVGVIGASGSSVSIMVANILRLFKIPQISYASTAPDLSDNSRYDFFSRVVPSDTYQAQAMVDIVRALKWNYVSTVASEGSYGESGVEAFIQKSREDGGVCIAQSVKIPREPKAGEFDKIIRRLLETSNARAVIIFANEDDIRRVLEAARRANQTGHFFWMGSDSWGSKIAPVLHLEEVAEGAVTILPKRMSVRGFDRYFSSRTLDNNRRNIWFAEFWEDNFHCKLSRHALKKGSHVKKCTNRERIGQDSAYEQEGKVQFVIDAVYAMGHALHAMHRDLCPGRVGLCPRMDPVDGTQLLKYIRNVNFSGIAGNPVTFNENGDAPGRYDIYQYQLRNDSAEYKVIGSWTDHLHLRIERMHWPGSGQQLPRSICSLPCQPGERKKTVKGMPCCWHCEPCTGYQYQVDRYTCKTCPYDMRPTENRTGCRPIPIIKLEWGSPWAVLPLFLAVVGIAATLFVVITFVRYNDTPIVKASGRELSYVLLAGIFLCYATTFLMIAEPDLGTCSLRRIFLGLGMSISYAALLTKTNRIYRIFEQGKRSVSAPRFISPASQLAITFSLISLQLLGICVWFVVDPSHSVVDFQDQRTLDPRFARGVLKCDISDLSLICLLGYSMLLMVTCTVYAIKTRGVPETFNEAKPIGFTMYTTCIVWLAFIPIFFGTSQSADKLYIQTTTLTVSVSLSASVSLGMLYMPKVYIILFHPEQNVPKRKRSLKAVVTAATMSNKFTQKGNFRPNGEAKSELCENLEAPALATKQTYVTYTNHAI
Sequence of UniProt P35398 (whole entry, looked up): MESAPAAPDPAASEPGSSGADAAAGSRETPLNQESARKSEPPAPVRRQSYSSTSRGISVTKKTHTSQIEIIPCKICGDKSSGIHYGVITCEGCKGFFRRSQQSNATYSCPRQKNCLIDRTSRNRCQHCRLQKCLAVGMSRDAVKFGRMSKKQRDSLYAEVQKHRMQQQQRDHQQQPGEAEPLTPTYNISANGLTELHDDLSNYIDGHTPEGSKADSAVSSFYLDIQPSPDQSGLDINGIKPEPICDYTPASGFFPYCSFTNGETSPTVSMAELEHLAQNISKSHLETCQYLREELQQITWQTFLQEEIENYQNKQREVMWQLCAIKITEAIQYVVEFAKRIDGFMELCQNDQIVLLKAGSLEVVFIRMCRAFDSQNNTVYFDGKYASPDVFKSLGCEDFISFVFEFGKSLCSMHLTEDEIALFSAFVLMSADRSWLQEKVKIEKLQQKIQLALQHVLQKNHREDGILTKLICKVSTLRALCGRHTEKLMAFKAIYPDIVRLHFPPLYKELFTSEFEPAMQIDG
Sequence of UniProt O88944 (whole entry, looked up): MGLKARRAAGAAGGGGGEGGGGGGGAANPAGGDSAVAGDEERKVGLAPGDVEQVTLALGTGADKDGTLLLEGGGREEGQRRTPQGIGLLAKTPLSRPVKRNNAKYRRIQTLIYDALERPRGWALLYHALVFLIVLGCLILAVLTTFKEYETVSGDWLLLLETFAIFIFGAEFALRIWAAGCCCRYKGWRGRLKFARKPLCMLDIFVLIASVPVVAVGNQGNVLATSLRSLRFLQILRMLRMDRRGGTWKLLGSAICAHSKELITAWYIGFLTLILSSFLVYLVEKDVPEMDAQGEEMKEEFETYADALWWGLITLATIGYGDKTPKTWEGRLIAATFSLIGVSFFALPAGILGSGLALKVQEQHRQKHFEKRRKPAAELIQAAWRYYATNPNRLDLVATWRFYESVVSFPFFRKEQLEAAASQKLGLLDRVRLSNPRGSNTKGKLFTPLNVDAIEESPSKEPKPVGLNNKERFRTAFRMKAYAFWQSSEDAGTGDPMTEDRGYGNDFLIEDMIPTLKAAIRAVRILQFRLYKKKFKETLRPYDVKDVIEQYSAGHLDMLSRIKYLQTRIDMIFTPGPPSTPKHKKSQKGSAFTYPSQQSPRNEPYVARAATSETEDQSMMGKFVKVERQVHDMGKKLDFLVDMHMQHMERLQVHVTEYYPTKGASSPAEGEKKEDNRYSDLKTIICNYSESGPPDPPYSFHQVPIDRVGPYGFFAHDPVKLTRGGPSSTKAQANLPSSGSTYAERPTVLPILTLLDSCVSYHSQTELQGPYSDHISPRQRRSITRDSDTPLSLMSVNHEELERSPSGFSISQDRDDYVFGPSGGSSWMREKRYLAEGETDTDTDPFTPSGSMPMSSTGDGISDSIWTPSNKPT
Sequence of UniProt Q9FD71 (whole entry, looked up): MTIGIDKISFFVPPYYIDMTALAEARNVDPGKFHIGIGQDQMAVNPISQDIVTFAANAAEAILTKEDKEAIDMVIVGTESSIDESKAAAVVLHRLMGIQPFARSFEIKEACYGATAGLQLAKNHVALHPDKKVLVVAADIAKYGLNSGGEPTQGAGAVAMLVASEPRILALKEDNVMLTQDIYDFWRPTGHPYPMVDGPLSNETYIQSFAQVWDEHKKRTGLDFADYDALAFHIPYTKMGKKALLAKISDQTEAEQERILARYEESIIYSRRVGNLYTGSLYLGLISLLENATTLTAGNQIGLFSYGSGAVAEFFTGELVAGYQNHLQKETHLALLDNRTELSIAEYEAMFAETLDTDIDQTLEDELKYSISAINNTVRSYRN
Sequence of UniProt P14416 (whole entry, looked up): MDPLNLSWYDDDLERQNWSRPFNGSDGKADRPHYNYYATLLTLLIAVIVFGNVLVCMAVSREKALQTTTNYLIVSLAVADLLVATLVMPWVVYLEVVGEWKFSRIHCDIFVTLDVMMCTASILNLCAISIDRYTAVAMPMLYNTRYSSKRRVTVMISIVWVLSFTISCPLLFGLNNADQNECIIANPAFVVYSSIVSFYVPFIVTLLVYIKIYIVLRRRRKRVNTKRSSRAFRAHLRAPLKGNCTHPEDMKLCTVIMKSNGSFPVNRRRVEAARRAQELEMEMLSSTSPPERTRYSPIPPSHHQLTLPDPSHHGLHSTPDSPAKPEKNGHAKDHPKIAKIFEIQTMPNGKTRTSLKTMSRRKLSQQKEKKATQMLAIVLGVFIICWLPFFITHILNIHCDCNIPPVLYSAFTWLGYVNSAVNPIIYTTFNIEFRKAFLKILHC

`CSCC[C@H](NC(=O)[C@@H]1CCCN1C(=O)[C@@H](NC(=O)[C@H](Cc1ccc(O)cc1)NC(=O)[C@H](C)NC(=O)[C@@H]1CCCN1C(=O)[C@@H]1CCCN1C(=O)[C@@H]1CCCN1C(=O)[C@H](CO)NC(=O)[C@H](Cc1c[nH]cn1)NC(=O)CN)[C@@H](C)O)C(=O)N[C@@H](CO)C(=O)O` has a TΔS of 1.04 ± 0.4 kcal/mol (WWOX WW1 domain; binding, ITC; pH 7.0, 25 °C).
For `CC(=C\C(=O)O)/C=C(\C)C[C@H](C)CCCC[C@H]1OC(=O)[C@@H]1CO`, the KI (inactivation) was 700 nM (mvaS (Enterococcus faecalis, UniProt Q9FD71); enzyme activity, inhibitor, absorbance).
With `CC(=O)[C@H]1CC[C@H]2[C@@H]3CCC4=CC(=O)CC[C@]4(C)[C@H]3CC[C@]12C` the maximal response was 122% (Nuclear receptor ROR-alpha (RORA, Homo sapiens, UniProt P35398); AlphaScreen; relative to: 25 µM 7α-hydroxycholesterol).
For `CC(C)S[C@@H]1O[C@H](CO)[C@H](O)[C@H](O)[C@H]1O`, the ΔG was -6.1 ± 0.1 kcal/mol (PA-I galactophilic lectin (lecA, Pseudomonas aeruginosa, UniProt Q05097); isothermal titration calorimetry; pH 7.5, 25 °C, together with: 25 mM CaCl2).
`CCCCCCCC(=O)OC[C@H](COP(=O)(O)O[C@@H]1[C@H](O)[C@H](O)[C@@H](OP(=O)(O)O)[C@H](OP(=O)(O)O)[C@H]1O)OC(=O)CCCCCCC` gave an open probability of 0.72 ± 0.16 (Potassium voltage-gated channel subfamily KQT member 3 (Rattus norvegicus, UniProt O88944); activator, inside-out patch clamp; CHO; 25 µM, pH 7.4, 0 mV, 175 mM KCl).
`CC(C)C[C@H](NC(=O)[C@@H](NC(=O)[C@@H](N)[C@@H](C)O)C(C)C)C(=O)N[C@@H](C)C(=O)N1CCC[C@H]1C(=O)N1CCC[C@H]1C(=O)N1CCC[C@H]1C(=O)N[C@@H](Cc1ccc(O)cc1)C(=O)N[C@@H](CCCNC(=N)N)C(=O)N[C@@H](Cc1c[nH]cn1)C(=O)N[C@@H](CCCNC(=N)N)C(=O)N[C@@H](CC(N)=O)C(=O)O`: “binding enthalpy ΔH” -3.33 ± 0.42 kcal/mol (WWOX WW1 domain; binding to WW1 domain, isothermal titration calorimetry; concentration not given, pH 7.0, 25 °C).
`CCN1C(=O)c2ccccc2[S+]([O-])c2ccc(C(=O)OCc3ccc(OC)cc3)cc21` (stereo not drawn): AC50 “inactive” (D(2) dopamine receptor (DRD2, Homo sapiens, UniProt P14416); calcium mobilization, antagonist; HEK293 T-REx D2 Gqi5; up to 77 µM).
`CC1=C(C(=O)OCc2ccccc2)C(c2ccc(-c3ccccc3C)cc2)N(Cc2ccc(-c3nnn[nH]3)cc2)C(=S)N1` (stereo not drawn) — result for “fold change in activity”: -4.8 fold (Heat shock 70 kDa protein 1A, with Hdj2 (HSPA1A, Homo sapiens, UniProt P0DMV8); ATPase activity, inhibitor; 100 µM, Hsp40-stimulated activity, together with: Hdj2 Hsp70:Hsp40 1:0.5; relative to: DMSO, negative means inhibition).
`CC[C@H](C)[C@H](NC(=O)[C@H](CCCCN)NC(=O)[C@H](CCCCN)NC(=O)[C@H](CCCNC(=N)N)NC(=O)[C@H](CCC(N)=O)NC(=O)[C@H](CCC(=O)O)NC(=O)[C@H](CCC(=O)O)NC(=O)[C@@H](NC(=O)[C@H](CC(C)C)NC(=O)[C@@H]1CCCN1C(=O)[C@H](CC(C)C)NC(=O)[C@H](CO)NC(=O)[C@@H](N)CCSC)[C@@H](C)O)C(=O)N[C@@H](CCC(=O)O)C(=O)N[C@@H](CCC(=O)O)C(=O)N[C@@H](CC(N)=O)C(=O)N[C@@H](CCCNC(=N)N)C(=O)N[C@@H](CCC(N)=O)C(=O)N[C@@H](CCCCN)C(=O)N[C@@H](C)C(=O)N[C@@H](CC(C)C)C(=O)N[C@@H](C)C(=O)N[C@@H](CCCNC(=N)N)C(=O)N[C@@H](CCCNC(=N)N)C(=O)N[C@@H](C)C(=O)N[C@@H](CCC(=O)O)C(=O)N[C@@H](CCCCN)C(=O)N[C@@H](CC(C)C)C(=O)N[C@@H](CC(C)C)C(=O)N[C@@H](C)C(=O)N[C@@H](CCC(=O)O)C(=O)N[C@@H](CCC(N)=O)C(=O)O`: “α-helical content increase” 20% (Replication protein A 32 kDa subunit, C-terminal domain (RPA2, Homo sapiens, UniProt P15927); CD spectroscopy; 20 µM, pH 7.0, 25 °C; relative to: free components).
The Emax of `CNC(=O)[C@@]12C[C@@H]1[C@@H](n1cnc3c(NCc4cccc(Cl)c4)nc(C#CCCCCc4cn(C56CC7CC(CC(C7)C5)C6)nn4)nc31)[C@H](O)[C@@H]2O` is reported as less than 50% (Adenosine receptor A3 (ADORA3, Homo sapiens, UniProt P0DMS8); cAMP inhibition, agonist; CHO; 10 µM, together with: forskolin; relative to: NECA at 10 µM).
For `O=C(Nc1ccccn1)C12CC1/C(=N\O)c1ccccc1O2` (stereo not drawn), the maximal response was 160 ± 10.6% (Metabotropic glutamate receptor 4 (GRM4, Homo sapiens, UniProt Q14833); potentiator, calcium mobilization; CHO expressing hmGluR4/Gqi5; together with: glutamate EC20; relative to: maximal glutamate).
`COc1cc(-c2cc(=O)c3ccc(O)c(OC)c3o2)cc(O)c1OC` has an inhibition of 3% (Alpha-glucosidase MAL12 (MAL12, Saccharomyces cerevisiae S288c, UniProt P53341); enzyme activity, inhibitor, absorbance; 10 µM).

A few entries again:
The Emax of `CNC(=O)[C@@]12C[C@@H]1[C@@H](n1cnc3c(NCc4cccc(Cl)c4)nc(C#CCCCCc4cn(C56CC7CC(CC(C7)C5)C6)nn4)nc31)[C@H](O)[C@@H]2O` is reported as less than 50% (Adenosine receptor A3 (ADORA3, Homo sapiens, UniProt P0DMS8); cAMP inhibition, agonist; CHO; 10 µM, together with: forskolin; relative to: NECA at 10 µM).
